Results collected from several papers.
Numbered parts are unrelated; each lists some results of a single study.

Sample 1
Target: RNA binding protein fox-1 homolog 2, RRM domain, GST-SBP tag (RBFOX2, Homo sapiens, UniProt O43251-10, residues 100-194)
Technique: RNA Bind-n-Seq
Form: RNA
Sample: in vitro
Concentration: 365 nM
Notes: natural RNA segment, single round, ends assumed
Reference: no-protein control
Direction: higher = stronger binding
Measurement: RBNS enrichment (R)
Target sequence (chain): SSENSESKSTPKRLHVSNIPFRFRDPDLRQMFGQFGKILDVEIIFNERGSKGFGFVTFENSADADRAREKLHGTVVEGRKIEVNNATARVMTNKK
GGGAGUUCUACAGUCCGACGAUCUCCUCUGACUUGGUUUGUAAGUAACCUGUAAUAAAAUGGCAUAUGCACUUUAACCAGCCCUGUGAUCCGUACGAGUGUAGCAGCAAGAGGACUCUGUUGACAGGCACGUUUGGAAUUCUCGGGUGCCAA: 4.89
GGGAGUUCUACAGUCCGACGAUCUGACUUCUUUGCAUAGUGAGUGACUUGGGCCUUCACAAACAGGGUGUGGAGUGGCAGGCAGAGGCCUCUAAAUCUCAGGGCAAACAUGGUGAAUCUAUCUCUCCGGAGAUUGGAAUUCUCGGGUGCCAA: 0.531
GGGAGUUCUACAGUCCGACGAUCGGGUUUGGCCCCUAGCUCCCACCAUGCUCCAUAGCAAAUGGCUAAAUUAAUAAAGAAGCAAAACUGUCUCUGCUAAGGGUUGCUGGAGGAGAUGGCGCAGAGACCCUGACUGGAAUUCUCGGGUGCCAA: 0.625
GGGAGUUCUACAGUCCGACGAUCAUUAAUCAGGUUUUUAUUCAAUCAUAUAAAUGUAUUCCUUUGUAAUCAUUUUUGUUUAACUGAGGAUAUCUAGUGUCUGCUUCAUAGGGUGCUUUGAAAUAUAAAAUGAAUGGAAUUCUCGGGUGCCAA: 0.822
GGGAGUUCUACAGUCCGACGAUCAGGGCUGAGGGGAAGGGGCUAUGAAUGUUUGUAUACAUGUUCACAGGGCACGGAAAAUCUUAUGCUGCUCCGUCAUAAACCUACACCAAUGCCCAGCAAUCACCCUCCUCUGGAAUUCUCGGGUGCCAA: 0.353
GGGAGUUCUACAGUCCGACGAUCACCUGAAGUUGCCUCUGGAGCCUCCACUGAGGAACACGUACAGCAGAGUCCUUCAUCCCAUCUCCAGGGUCUCUGACUUGUCACCCCUCAUCCUGGGAGCGCCAUAGUUCUGGAAUUCUCGGGUGCCAA: 0.299

Sample 2
Target: Centromere-binding protein 1, full length, N-terminal tag (CBF1, Saccharomyces cerevisiae, UniProt P17106, residues 1-351)
Sequence of UniProt P17106 (whole entry, looked up): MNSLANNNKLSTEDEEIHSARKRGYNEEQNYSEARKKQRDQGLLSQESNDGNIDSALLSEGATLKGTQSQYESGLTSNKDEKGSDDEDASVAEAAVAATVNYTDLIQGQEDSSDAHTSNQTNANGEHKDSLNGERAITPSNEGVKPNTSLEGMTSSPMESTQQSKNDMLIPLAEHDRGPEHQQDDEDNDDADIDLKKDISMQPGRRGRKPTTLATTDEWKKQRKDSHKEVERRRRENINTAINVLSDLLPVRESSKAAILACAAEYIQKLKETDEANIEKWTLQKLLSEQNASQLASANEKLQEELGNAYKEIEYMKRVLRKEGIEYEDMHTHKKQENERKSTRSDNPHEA
Technique: protein-binding microarray
Form: double-stranded DNA, one strand shown
Sample: in vitro
Concentration: 0.8 µM
Notes: whole 60-bp probe, no competitor
Direction: higher = stronger binding
Measurement: fluorescence intensity
CTACATTTAGTCAATCACGTCAACCTGTCTAAATTCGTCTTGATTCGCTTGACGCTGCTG: 602 a.u.
CTATAGTCACGTGGTCATCACGTGAGCATAATATTCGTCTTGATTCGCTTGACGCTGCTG: 41700 a.u.
CTATTTCCTAATGGGCACGCGACATACGTTTCATTCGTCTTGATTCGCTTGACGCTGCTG: 887 a.u.
CCTAACTACTATATTCACGTAAAATAGCTTCGTACAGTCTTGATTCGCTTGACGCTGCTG: 515 a.u.
GAAATAGTTTAGCATTGCGTGGAGGGATACTGATAGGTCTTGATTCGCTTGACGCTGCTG: 505 a.u.
CTAGTGGGCATAGATCACGCTTCAGCCGCTCTGTTCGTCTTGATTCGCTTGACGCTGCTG: 857 a.u.
GAACAGCTTCCACCAAGCCTGATCACCGTTTACTAGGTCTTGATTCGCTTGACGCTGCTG: 482 a.u.
CTAATATAGATGCAGGTGATTACTAGTGGGGCATTCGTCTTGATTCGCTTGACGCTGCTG: 1040 a.u.
CTACAGACATTCTGTCACCTGGTGAAAAACGACTTCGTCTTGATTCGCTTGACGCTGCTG: 1020 a.u.
GAACACACACAGGCGCACACGAGAACAGATGAGTAGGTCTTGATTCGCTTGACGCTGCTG: 608 a.u.
GAAAGATGTGGCAGTGACACCAATTGCAAGAGATAGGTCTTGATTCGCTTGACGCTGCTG: 622 a.u.
CCTAACTACTATATTCATGTGAAATAGCTTCGTACAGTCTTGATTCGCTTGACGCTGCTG: 526 a.u.
GAATATGTATTCATGCACGATGCAAGCATTCAATAGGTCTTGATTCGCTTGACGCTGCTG: 533 a.u.
GAAGAGATTTGCTAGGTGATGACGACGGTGATGTAGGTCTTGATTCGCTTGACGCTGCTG: 545 a.u.
CTATCTGCAAGTTACCGTGTCACCTTCACAGTTTTCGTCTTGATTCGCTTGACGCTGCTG: 606 a.u.
GAATAAATAGACACTCACATGTATATTAATTTATAGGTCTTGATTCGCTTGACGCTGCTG: 1060 a.u.
GAAATGAGTAAGAGGCACATGCACTAGAGCATATAGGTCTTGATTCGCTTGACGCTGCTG: 682 a.u.
GAATAAATGGATAGAAGACGTTAAAAATGAAAGTAGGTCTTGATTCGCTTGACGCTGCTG: 545 a.u.

Sample 3
Target: RING finger protein unkempt homolog, zinc fingers 1-6, SBP tag (UNK, Homo sapiens, UniProt Q9C0B0, residues 30-357)
Sequence of UniProt Q9C0B0 (30-357, looked up): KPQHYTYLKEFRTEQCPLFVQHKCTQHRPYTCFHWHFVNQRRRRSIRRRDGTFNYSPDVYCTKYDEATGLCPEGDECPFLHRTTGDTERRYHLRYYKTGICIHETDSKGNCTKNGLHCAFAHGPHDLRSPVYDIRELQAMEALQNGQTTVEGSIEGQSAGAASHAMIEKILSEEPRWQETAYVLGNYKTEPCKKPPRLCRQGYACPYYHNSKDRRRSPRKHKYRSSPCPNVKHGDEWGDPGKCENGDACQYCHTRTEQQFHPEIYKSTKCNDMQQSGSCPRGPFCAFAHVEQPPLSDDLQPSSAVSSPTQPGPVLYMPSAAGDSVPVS
Technique: RNA Bind-n-Seq
Form: RNA
Sample: in vitro
Concentration: 100 nM
Notes: RNA with constant flanks, vertebrate orthologous sites, ends assumed
Reference: input RNA pool
Direction: higher = stronger binding
Measurement: bound/input enrichment
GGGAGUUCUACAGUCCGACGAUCUCUGUAUAGCAAGUAGAGUGGACUCCCCUUUCUACUUCUCGCAGGAACAAAAAGCCCAGAUAGAUUCUGGACACAUCUGAUUAUACUGUUCUGUUUUUGUUUUCUAUUAUUUUUCCAUUUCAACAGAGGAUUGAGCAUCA: 0.717 ratio
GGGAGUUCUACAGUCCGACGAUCUAUUAGCGUCAUACCAGCAUAUUAACCUCUCGUCUGUGCACAGCUUCAAAUGUUACCGUCUAGUUAGAUUUUUAUUUAAAAUAUGAAAAACUGCUUUUCCCAAGACGUUUUUUAAAAACACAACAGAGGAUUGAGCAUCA: 1.53 ratio
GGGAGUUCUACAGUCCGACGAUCAAGAUGGUGGUUGUACAUUAUUUCAUUUAGAAAAUAUAAAAAUUCAUUUUGUUUUGAAGCUAGGUGUUAAACUGGAAUAGCUCUUUAUACCCCAGAGAAUGGGGCAGUUGUGCCCUUCCCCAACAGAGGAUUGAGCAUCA: 1.56 ratio
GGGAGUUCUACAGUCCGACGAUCCCGCCAACUCCCUGAUCGGCCGGGCGGCGCACAUCGCCGUCCUCGACUCCGAGAUUUUCCUGGAGAAGUUCUUCCUGGUGGCCGGACUGAAGUUCUUUCAGUAGAACCAGAAGAAAGAGACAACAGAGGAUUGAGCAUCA: 0.16 ratio
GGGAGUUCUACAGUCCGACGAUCCUGAAGCUUUGUGUUUGGCUGCACCUGCAUAAGCUGCUACAAAUAGAAUAAAGAAUUUCAUAGCCUGUAUCUAUCAUUUGGAUGCAUGGAAAACGGGCUUUGCACACAGUGGGUUUGGAGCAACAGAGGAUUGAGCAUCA: 1.14 ratio
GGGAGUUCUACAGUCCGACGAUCGUCCCUCAGUGACAGUAUGCCAUCUGUAGCCGAUUCCCACUCUAGUCACUUUUCUGAAUUUAGUUGUUCUGACCUUGAAAGCAUGAAAACUUCAUGUAGUCAUGGUUCCAGUGAUUACCACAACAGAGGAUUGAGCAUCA: 3.76 ratio
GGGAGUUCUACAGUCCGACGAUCAGGACCUCCAGUAGGCAAAUUCAGGGAGAGAGAGGCUUCAGGGAAUAUAAACCCAGAUAGCAGUGAUCAUGAAGUAUAACCUUGACAUAACUAAAUGAUUCGGGGGAAUGAUGGCAACUUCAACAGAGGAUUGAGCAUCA: 1.15 ratio
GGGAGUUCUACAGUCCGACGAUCGAAUUGAAAAACCAGAGCUUCACCCAGGCCCCUGUUCACUAGGAGAUGCAAAUAUUACAUUAGAAGAACAAUUAAACUCCAUAAAUUUAUCUUUUCAGGAUGAUCCAGAUUCCAGUACGACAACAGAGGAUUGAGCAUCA: 1.3 ratio

Sample 4
Target: Fragile X messenger ribonucleoprotein 1, C-terminal low-complexity region (Fmr1, Mus musculus, UniProt P35922)
Technique: RNA Bind-n-Seq
Form: RNA
Sample: in vitro
Concentration: 200 nM
Notes: whole 134-nt RNA, ends assumed
Added: 150 mM KCl
Reference: input library
Direction: higher = stronger binding
Measurement: log2 enrichment
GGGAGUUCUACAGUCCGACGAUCUCAAGUCCUGUGCUACACAUCGUAUGUACCGAAUCGGGUUGGGGUUGGUUGGGGAAAGUAUUAUGUUACGCCGUUCGGAUCUGCACUUCCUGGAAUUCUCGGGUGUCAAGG: 0.989
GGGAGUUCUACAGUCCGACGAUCGCAGGAAGUAAAAACAAAUGGAAAUGCUACGGAUAGUGGCAGGGGUGGGGGUUGCUAAGGAAAGGGUGGGAUGGGAGUGGGUAAAGAGUUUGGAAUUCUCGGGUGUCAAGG: 0.988
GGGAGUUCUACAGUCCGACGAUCGUCCUGUGCUACACAUCGUAUGUACCGAAUCGGGUUUUUUUGGGAAAAAAAGGGAGGGAAAGUAUUAUGUUACGCCGUUCGGAUCUGCACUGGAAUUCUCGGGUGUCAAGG: 0.156
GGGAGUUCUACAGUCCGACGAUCCCUGUGCUACACAUCGUAUGUACCGAAUCGGGCCCCCCGGGGCCCCCCGGGCCCCCCGGGGAAAGUAUUAUGUUACGCCGUUCGGAUCUGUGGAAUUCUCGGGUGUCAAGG: -1.05
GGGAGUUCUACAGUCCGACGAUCGCAGGAAGUAAAAACAAAUGGAAAUGCUUCGGAUAGUGGCAGGGGUGGGGGUUGCUAAGGAAAGGGUGGGAUGGGAGUGUGUAAAGAGUUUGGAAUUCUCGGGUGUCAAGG: 0.345
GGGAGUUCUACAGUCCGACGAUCUCCUGUGCUACACAUCGUAUGUACCGAAUCGGGAAAAAGGGAAAAAAAGGGUUUUUGGGAAAGUAUUAUGUUACGCCGUUCGGAUCUGCAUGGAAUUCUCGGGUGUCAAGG: -0.164
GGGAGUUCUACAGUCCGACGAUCUGGCCCUGGUGGCAUGCGGGGAGGAAGAGGAGGCCUCAUGGAUCGUGGUGGUCCCGGUGGAAUGUUCAGAGGUGGCCGUGGUGGAGACAGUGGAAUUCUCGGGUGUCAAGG: 0.117
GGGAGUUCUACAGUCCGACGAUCACCAUGCAGGUGGGCAUAUUUGGGAAGUGGGGCAAGGGGGGGAUAGGGAGGGGGGUAACACUUUGGGAACAGGUGGUCCCAGGUCGUUUCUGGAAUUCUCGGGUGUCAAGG: 0.634
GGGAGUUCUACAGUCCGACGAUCUCCUGUGCUACACAUCGUAUGUACCGAAUCAAACCCCCAAAUUUUUAAAUUUUUUUAAAAAAGUAUUAUGUUACGCCGUUCGGAUCUGCAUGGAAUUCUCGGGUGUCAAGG: 0.519
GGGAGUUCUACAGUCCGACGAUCACAAAGCAGGUGGGCAUCUUUGGGAAGUGGGGCAAGGGGGGGAUAGGGAGGGGGGUAACACUUUGGGAACAGGUGGUCCCAGGUCGUUUCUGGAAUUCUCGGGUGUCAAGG: 0.915

A few entries again (sample 1):
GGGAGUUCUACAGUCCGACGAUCUCCUCUGACUUGGUUUGUAAGUAACCUGUAAUAAAAUGGCAUAUGCACUUUAACCAGCCCUGUGAUCCGUACGAGUGUAGCAGCAAGAGGACUCUGUUGACAGGCACGUUUGGAAUUCUCGGGUGCCAA: 4.89
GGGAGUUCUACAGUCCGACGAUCUGACUUCUUUGCAUAGUGAGUGACUUGGGCCUUCACAAACAGGGUGUGGAGUGGCAGGCAGAGGCCUCUAAAUCUCAGGGCAAACAUGGUGAAUCUAUCUCUCCGGAGAUUGGAAUUCUCGGGUGCCAA: 0.531
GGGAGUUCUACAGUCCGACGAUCGGGUUUGGCCCCUAGCUCCCACCAUGCUCCAUAGCAAAUGGCUAAAUUAAUAAAGAAGCAAAACUGUCUCUGCUAAGGGUUGCUGGAGGAGAUGGCGCAGAGACCCUGACUGGAAUUCUCGGGUGCCAA: 0.625
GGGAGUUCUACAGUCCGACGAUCAUUAAUCAGGUUUUUAUUCAAUCAUAUAAAUGUAUUCCUUUGUAAUCAUUUUUGUUUAACUGAGGAUAUCUAGUGUCUGCUUCAUAGGGUGCUUUGAAAUAUAAAAUGAAUGGAAUUCUCGGGUGCCAA: 0.822
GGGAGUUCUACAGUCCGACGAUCAGGGCUGAGGGGAAGGGGCUAUGAAUGUUUGUAUACAUGUUCACAGGGCACGGAAAAUCUUAUGCUGCUCCGUCAUAAACCUACACCAAUGCCCAGCAAUCACCCUCCUCUGGAAUUCUCGGGUGCCAA: 0.353
